# Measurements gathered from unrelated publications.
# Each numbered part is a random draw from the data of one study; scales do not carry over between parts. Changes are numbered by the printed parent chain.

# Block 1 — method: DHFR PCA, deep sequencing; matrix: yeast; added: (+)-ABA 0.032 µM; reference: wild-type fitted maximum; reading: higher = stronger binding
# Target: ABI1, truncated, D143A, DHFR fusion (Arabidopsis thaliana)
# Setting: methotrexate growth selection, single substitutions
# Parent: PYL1, truncated, DHFR fusion (Arabidopsis thaliana); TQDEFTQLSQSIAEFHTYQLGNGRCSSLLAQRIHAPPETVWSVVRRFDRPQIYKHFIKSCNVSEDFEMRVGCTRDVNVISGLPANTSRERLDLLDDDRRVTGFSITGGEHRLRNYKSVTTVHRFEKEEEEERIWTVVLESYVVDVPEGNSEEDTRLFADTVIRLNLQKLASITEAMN; partner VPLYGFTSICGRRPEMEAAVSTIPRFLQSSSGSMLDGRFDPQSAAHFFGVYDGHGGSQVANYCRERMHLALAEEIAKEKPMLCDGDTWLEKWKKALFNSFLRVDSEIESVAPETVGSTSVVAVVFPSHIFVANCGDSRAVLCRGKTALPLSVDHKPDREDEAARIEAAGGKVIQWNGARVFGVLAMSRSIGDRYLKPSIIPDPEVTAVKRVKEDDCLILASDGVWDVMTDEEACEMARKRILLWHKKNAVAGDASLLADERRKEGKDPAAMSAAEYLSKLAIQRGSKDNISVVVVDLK
Substitution,relative binding score
I133C,44.3%
T73P,-0.615%
Q51W,1.79%
L156Y,-3.48%
R88A,1.4%
A13K,37.3%
D75N,20%
G108F,-5.96%
E151D,9.54%
R98I,4.45%
V62H,0.249%
G81M,1.3%
R99A,0.525%
E151Y,9.32%
I12S,-0.187%

# Block 2 — target: CCND2, cyclin fold, Cln2 fusion (human); method: yeast growth competition, sequencing; matrix: yeast; setting: weak parent motif; reference: not given; reading: higher = stronger binding
# Parent: ORC1 docking peptide (human); PRARKRLELGNLG; partner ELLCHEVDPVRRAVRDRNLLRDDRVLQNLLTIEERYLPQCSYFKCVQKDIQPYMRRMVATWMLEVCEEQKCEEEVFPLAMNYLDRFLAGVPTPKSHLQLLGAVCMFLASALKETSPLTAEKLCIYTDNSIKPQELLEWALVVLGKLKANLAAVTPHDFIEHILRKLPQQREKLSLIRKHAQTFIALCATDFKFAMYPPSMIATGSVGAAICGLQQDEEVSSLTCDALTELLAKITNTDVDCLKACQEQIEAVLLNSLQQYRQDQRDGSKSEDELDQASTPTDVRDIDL
Substitution,normalised enrichment score
N11D,0.109
R2K,0.0774
R6K,0.0896
R4A,0.114
K5S,0.278
R2L,0.239
E8P,-0.189
R6I,0.691
P1S,-0.214
E8D,0.438
G10D,0.365
A3C,0.332
R6W,-0.262
K5R L9F,1.17
E8I,0.107
P1E,0.328
A3S,0.392
E8H,-0.247
A3T,0.39
R4C,-0.197
K5T,0.187
E8R,0.191
P1R,0.33
G13K,-0.00739
A3W,-0.105

# Block 3 — method: RNA Bind-n-Seq; molecule type: RNA; matrix: in vitro; concentration: 100 nM; reference: input RNA pool; reading: higher = stronger binding
# Target: RING finger protein unkempt homolog, zinc fingers 1-6, SBP tag (UNK, Homo sapiens, UniProt Q9C0B0, residues 30-357)
# Chain of UniProt Q9C0B0 (30-357, looked up): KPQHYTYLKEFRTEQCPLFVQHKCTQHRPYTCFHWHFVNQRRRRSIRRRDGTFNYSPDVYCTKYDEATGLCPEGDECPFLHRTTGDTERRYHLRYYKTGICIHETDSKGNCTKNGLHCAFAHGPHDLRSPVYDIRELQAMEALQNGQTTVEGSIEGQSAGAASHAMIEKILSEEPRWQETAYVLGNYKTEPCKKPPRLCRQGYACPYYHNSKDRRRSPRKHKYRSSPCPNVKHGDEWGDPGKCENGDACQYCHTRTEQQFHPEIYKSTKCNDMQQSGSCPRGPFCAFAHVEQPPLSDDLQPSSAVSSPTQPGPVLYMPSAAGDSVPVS
# Setting: RNA with constant flanks, vertebrate orthologous sites, ends assumed
# All sequences stand within: GGGAGUUCUACAGUCCGACGAUC … CAACAGAGGAUUGAGCAUCA
Oligonucleotide,bound/input enrichment
CAGCAGAUUCUCUCAUAGGGAGAGCUGCACAUAUUGCUGUUCUUGAUUCAGAAAUAUUUUUAGAAAAAUUCUUUCUUGUUGCUGCCCUAAAAUAUUUUCAGUAGAGAAAAGCAUUGUCAG,0.286 ratio
UUCCCCCUCCCCUCAGGAUGGGGUGGGGGGAGCCCAUGAUGACCCUCAGCUGUUCCAAUCCAGUAGUUUUUUUUUUUUUUUUCUUUUUAAAAUUACUGUAUUUAUUAUGACGACGGUGAC,1.22 ratio
CGGCCAACUCCAUCAUCGGACGUGCCGCUCACAUCGCCGUGCUCGACUCGGAGAUAUUUCUGGAGAAGUUUUUCCUCGUCGCAGGCCUGAAGUAUUUCCGAUAGGUUGGUGUGGCAGCCA,0.284 ratio
AAUCUCAUGUAGUUUGUUUUUAAUUUCAAGCAAAUUGUACUUGAAUGUGUCCCAUUUUGUUAGCACACCUAGACUUGCUGUAACUGUACUCAUGUCCCAGUAUGUACGUUCUUUCUAUGA,0.78 ratio
UCCUCAACUUGUUCUAGCUUGUGAUCCUUCAAAGUUGGGUCAUACAUUAGUGCUAGAUACUAGAAAUAUUCACUUUUCCACUGAUCAGAGAGACAGACAUUAAAAACAAAAAUAGAAGAA,1.98 ratio
AUUUAGAAUGUUAAUAAAUUGCUCUGAGAUUCCUCAAGUCCAUUUUGUAAGAUCAGACCAUAGGUGGGUGUUGUUUCUUUUAAGUUUGUGUGCUGUGUCCAGUGUUACAUUUUUAAAAGU,3.2 ratio
GAAUAUAGUCACUCAAUUAAAAUUAUUUAGAUAAAAUUAUUGUUUAUGUUUUCUUUCAAGCAAUCUAUCCUAUUUUUAUCCAUUUGCAAAUGCCAGUUUUGUGUGGUUUCUUAGCAUAUC,1.08 ratio
AAAAUCCUGGCUGCUUGUAUCACCUCAGUGAGGUAAAGUCUCCAGGCAUUCAGCCAGGACCAGCCUCACCACCCUCAGACUCUGCACAUGUAAUUUUCUUUCUUUUGUACAUGCUCAUCU,0.484 ratio
GCAAUGAAAAAGCAGCCCUUCUCCCAGCCCCCUUUGCACUAGGAGAUACAAACGUUACCAUAGAAGAGCAAUUAAACUCAAUAAAUUUAUCUUUUCAGGAUGAUCCAGACUCCAGUACCA,0.989 ratio
CCUCCUGAACUUCUCUUGCUUUCAGGCUGUGGCUGUUUCAGAUACUGGUUUUAUUUUCUUUGCAGUUUUCCCCUGUCCCACCUUUCUCCCCUCCUUUCCAAGGUUUGACUCAUGGAUUGU,1.51 ratio
AAUCAUGCUGCUUUUACCUGCCUCAAUGAGGUAACAUCUCCCCUGACGUUUGGUUGGCACUAGAGCCCAUCACACCUAAUAUGUUUUUCCACAUUUCAUCUCCUUACGCUCACACUCAUC,1.61 ratio

# Block 4 — method: protein-binding microarray; molecule type: double-stranded DNA, one strand shown; matrix: in vitro; concentration: 2540 nM top; setting: 60-bp whole probe; added: salmon DNA 0.4 mg/ml; reference: random background probes; reading: higher = stronger binding; all sequences stand within: GCCTAGCAC … GTCTTGATTCGCTTGACGCTGCTG
# Target: Interferon regulatory factor 3, full length, phosphomimetic (IRF3, Homo sapiens, UniProt Q14653, residues 1-427, S386D/S396D/S398D/S402D/T404D/S405D)
# Chain of UniProt Q14653 (whole entry, unmodified, looked up): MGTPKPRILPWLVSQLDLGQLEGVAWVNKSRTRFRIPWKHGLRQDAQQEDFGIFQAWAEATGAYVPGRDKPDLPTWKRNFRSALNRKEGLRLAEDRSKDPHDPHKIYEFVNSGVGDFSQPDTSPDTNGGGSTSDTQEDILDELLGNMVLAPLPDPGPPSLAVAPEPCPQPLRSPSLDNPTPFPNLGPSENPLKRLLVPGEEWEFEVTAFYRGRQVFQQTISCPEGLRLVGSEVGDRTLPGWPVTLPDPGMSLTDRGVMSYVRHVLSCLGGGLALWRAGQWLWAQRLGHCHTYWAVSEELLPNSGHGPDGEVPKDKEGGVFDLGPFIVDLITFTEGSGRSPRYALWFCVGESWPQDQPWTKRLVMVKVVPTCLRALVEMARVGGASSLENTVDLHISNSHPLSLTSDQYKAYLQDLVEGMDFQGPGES
Oligonucleotide,fitted relative affinity
CATGAACTGTTTCTTGAAAAGTGCTAG,0.521 z-score
TCCTCTTTCACTGCTCCCCACGTGCTA,1.95 z-score
TCAGCTCTGTGCATAGGACTGTGCTAG,-0.24 z-score
CTGCCTGGCCAAGCCCAGATGTGCTAG,-0.874 z-score
ACATCTCTCTTAAATAGGGACGTGCTA,0.99 z-score
CCTCATCTTCCTCTGCCACAGTGCTAG,1.22 z-score
TCATTTGTCACTCTCAGACTGTGCTAG,1.45 z-score
GACGAAATGAGACTGGAGACGTGCTAG,-0.0811 z-score
AACGGACTGCTTTTCCTGACGTGCTAG,0.091 z-score
CTTAGTTTGTATATATTTTAGTGCTAG,0.585 z-score
TTAGATCTCAGACTGGATCAGTGCTAG,0.0433 z-score
GACGCTTTCCTTCTCCTGACGTGCTAG,6.99 z-score
GACGAACTGGGGTATTGAGACGTGCTA,-0.534 z-score
TTAGGTATCGACACGGGGTTAGTGCTA,-0.0237 z-score
GACGCTATCGGGTTTCGAGACGTGCTA,0.826 z-score
TTCGAACTGGGGTTTCGATTAGTGCTA,1.6 z-score

# For quick reference, copied from above (block 2):
Substitution,normalised enrichment score
G10D,0.365
P1E,0.328
E8I,0.107
K5S,0.278
G13K,-0.00739
A3C,0.332
K5R L9F,1.17
E8P,-0.189
